Measured values pooled from the literature.
± marks the error that the study gave.

O=C(O)CCc1cccc(O)c1  plasma concentration (human plasma; median): 1210 nM
O=Cc1cc2c(cc1F)C(=O)N(C1CCC(=O)NC1=O)C2 (stereo not shown)  plasma concentration (cynomolgus monkey, male; oral, 0.3 mg/kg parent drug, 6 h): 0.24 ng/mL
CCOCc1nc(O)c(-c2nnc(Cc3ccc(Cl)cn3)o2)c(O)c1-c1c(OC)cccc1OC  plasma concentration (rat, anaesthetised, cannulated, plasma; intravenous infusion, 1 µg/kg/min, 15 min): 104 nM
COc1c(O)c(C)cc2c1C(=O)c1c(O)cccc1C2=O  cell viability (HepaRG co-cultured with HK-2; MTT; 16.67 µM, 24 h; baseline: untreated control): 90.9 ± 14.5%
COc1ccccc1OCC(O)CN1CCN(CC(=O)Nc2c(C)cccc2C)CC1 (stereo not shown)  plasma concentration (human, plasma; oral, 12 mg/kg/day every 12 h, 1 h post-dose): 1180 ng/mL
C=C1C(=O)O[C@@H]2C[C@@]3(C)CCCC(=C)[C@@H]3C[C@H]12  apoptotic cells (COS-7; 30 µM, 24 h, 0.1% DMSO, unit not given; baseline: vehicle control): 1.53 ± 0.52
C[C@H](CCC(=O)NCC(=O)O)[C@H]1CC[C@H]2[C@@H]3[C@H](O)C[C@@H]4C[C@H](O)CC[C@]4(C)[C@H]3CC[C@]12C  plasma concentration (men, T/C genotype, plasma; dose not given, geometric mean): 441 ng/mL
Cn1cc([C@H]2C[C@H]3CSC(N)=N[C@@]3(c3ccc(F)cc3F)CO2)cn1  plasma concentration (male 129/SVE mouse, plasma; subcutaneous, 3 mg/kg, 9 h): 6 nM
COc1cccc(O)c1OS(=O)(=O)O  plasma concentration (human plasma; mean): 5690 nM
NCc1cc2c(cc1F)C(=O)N(C1CCC(=O)NC1=O)C2 (stereo not shown)  plasma concentration (cynomolgus monkeys; oral, 0.3 mg/kg, 0.117 h): not detected
COc1cccc(-c2n[nH]c(SCc3ccccn3)n2)c1OC  plasma concentration (Sprague-Dawley rats, both sexes; oral dietary, 10 mg/kg/day, day 90, 24 h): 161 ng/mL
O=C(O)c1c(O)cccc1O  plasma concentration (human plasma; mean, both sexes): 7580 nM
CC(C)C[C@H](NC(=O)[C@@H](Cc1c[nH]c2ccccc12)NC(=O)[C@H](Cc1ccc(O)cc1)NC(=O)[C@H](CO)NC(=O)[C@H](Cc1c[nH]c2ccccc12)NC(=O)[C@H](Cc1c[nH]cn1)NC(=O)[C@@H]1CCC(=O)N1)C(=O)N[C@@H](CCCNC(=N)N)C(=O)N1CCC[C@H]1C(=O)NCC(N)=O  plasma concentration (Chinese boys, precocious puberty, plasma; intramuscular, 22.5 mg, 8640 h, month 12, mean): 0.0224 ng/mL
Cc1c(C(=O)O)ccc2c3n(nc12)[C@@H]1[C@H](C3)N(CC2CC2)[C@@]2(C(=O)Nc3cc(Cl)ccc32)[C@H]1c1cccc(Cl)c1F  plasma concentration (female BALB/c nude mice, SJSA-1 xenograft, plasma; oral, 2 mg/kg once daily, 4 h): 1880 nM
CC(=O)c1c(C)cc2cc(O)cc(O[C@@H]3O[C@H](CO)[C@@H](O)[C@H](O)[C@H]3O)c2c1O  cell viability (HepaRG co-cultured with HK-2; MTT; 33.33 µM, 24 h; baseline: untreated control): 104 ± 6.22%
O=C1CCc2ccc(OCCCCN3CCN(c4cccc(Cl)c4Cl)CC3)cc2N1  plasma concentration (patients, plasma, steady state; oral or long-acting depot injection, dose not given, CYP2D6 NM, median): 107 ng/mL
C[C@H](CCC(=O)NCC(=O)O)[C@H]1CC[C@H]2[C@@H]3CC[C@@H]4C[C@H](O)CC[C@]4(C)[C@H]3C[C@H](O)[C@]12C  plasma concentration (women, T/T genotype, plasma; dose not given, geometric mean): 109 ng/mL
O=C(O)CCc1cccc(O)c1O  plasma concentration (human plasma; median): 945 nM
CC(=O)NCc1cc2c(cc1F)C(=O)N(C1CCC(=O)NC1=O)C2 (stereo not shown)  plasma concentration (cynomolgus monkey, male; oral, 0.3 mg/kg parent drug, 3 h): 0.35 ng/mL
O=c1c(O)c(-c2ccc(O)c(OS(=O)(=O)O)c2)oc2cc(O)cc(O)c12  plasma concentration (human plasma; median): 91.9 nM
CCN(CC)CCCC(C)Nc1ccnc2cc(Cl)ccc12 (stereo not shown)  apoptosis (COS-7; 100 µM, 24 h, 0.1% DMSO, unit not given; baseline: control): 2.32 ± 0.33
O=C(O)c1ccc(O)c(OS(=O)(=O)O)c1  plasma concentration (human plasma; median): 49.9 nM
O=C1CCC(N2Cc3cc(CO)c(F)cc3C2=O)C(=O)N1 (stereo not shown)  plasma concentration (cynomolgus monkey, male; oral, 0.3 mg/kg parent drug, 3 h): 1.06 ± 0.94 ng/mL
COc1cc(C(=O)O)ccc1O  plasma concentration (human plasma; mean, both sexes): 101 nM
Cc1c(-c2ccc(N3CCc4cccc(C(=O)Nc5nc6ccccc6s5)c4C3)nc2C(=O)O)cnn1CC12CC3(C)CC(C)(C1)CC(OCCNCC[C@H](O)CO)(C3)C2  plasma concentration (anaesthetized male beagle dog; iv infusion, 0.1 mg/kg/min, 45 min): < 4 ng/mL

Excerpt of the above:
Cc1c(C(=O)O)ccc2c3n(nc12)[C@@H]1[C@H](C3)N(CC2CC2)[C@@]2(C(=O)Nc3cc(Cl)ccc32)[C@H]1c1cccc(Cl)c1F  plasma concentration (female BALB/c nude mice, SJSA-1 xenograft, plasma; oral, 2 mg/kg once daily, 4 h): 1880 nM
C=C1C(=O)O[C@@H]2C[C@@]3(C)CCCC(=C)[C@@H]3C[C@H]12  apoptotic cells (COS-7; 30 µM, 24 h, 0.1% DMSO, unit not given; baseline: vehicle control): 1.53 ± 0.52
